Literature values, collected from citations in different studies.
Protocols differ between the studies behind these lines. ± marks the error that the study gave.
Chain of UniProt P51617 (whole entry, looked up): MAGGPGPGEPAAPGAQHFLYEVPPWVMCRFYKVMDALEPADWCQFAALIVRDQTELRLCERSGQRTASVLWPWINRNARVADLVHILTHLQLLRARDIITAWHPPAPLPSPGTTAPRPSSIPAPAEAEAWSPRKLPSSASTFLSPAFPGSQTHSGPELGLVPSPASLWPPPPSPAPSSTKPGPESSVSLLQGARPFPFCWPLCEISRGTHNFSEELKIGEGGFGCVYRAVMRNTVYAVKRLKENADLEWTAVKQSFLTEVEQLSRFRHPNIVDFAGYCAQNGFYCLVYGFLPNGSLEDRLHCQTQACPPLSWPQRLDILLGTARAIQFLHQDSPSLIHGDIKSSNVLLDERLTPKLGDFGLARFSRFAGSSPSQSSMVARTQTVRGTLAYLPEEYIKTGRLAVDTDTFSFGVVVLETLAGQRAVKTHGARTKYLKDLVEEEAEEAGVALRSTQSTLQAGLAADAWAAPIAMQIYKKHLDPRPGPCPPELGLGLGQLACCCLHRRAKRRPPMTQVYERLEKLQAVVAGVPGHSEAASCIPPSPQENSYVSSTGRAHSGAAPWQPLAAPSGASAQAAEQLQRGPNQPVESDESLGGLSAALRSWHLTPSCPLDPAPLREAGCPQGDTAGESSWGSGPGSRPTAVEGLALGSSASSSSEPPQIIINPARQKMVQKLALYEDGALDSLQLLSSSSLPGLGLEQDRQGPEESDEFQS
Chain of UniProt Q8NEB9 (whole entry, looked up): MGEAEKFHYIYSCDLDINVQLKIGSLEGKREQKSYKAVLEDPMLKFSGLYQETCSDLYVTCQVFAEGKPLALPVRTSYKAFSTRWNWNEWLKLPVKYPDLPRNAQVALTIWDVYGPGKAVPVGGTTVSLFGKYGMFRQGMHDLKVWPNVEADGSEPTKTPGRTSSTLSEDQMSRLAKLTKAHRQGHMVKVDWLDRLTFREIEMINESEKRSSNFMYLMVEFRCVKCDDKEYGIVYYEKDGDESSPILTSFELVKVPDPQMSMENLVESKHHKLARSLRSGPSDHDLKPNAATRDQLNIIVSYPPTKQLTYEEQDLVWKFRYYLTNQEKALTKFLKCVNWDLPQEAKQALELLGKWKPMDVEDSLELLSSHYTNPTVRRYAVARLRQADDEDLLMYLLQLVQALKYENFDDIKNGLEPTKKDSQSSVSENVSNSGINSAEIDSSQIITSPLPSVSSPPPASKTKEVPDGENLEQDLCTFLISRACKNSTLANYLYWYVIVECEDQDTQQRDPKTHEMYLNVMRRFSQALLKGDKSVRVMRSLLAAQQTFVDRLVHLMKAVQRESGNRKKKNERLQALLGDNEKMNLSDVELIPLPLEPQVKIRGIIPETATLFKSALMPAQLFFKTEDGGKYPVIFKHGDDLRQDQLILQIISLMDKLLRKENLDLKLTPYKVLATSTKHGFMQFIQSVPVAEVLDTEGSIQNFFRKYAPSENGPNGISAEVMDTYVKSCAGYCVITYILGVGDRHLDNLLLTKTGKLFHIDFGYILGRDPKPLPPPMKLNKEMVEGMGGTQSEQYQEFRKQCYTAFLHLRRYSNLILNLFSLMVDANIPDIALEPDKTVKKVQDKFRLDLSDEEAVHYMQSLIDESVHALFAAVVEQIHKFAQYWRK
Chain of UniProt O96028 (whole entry, looked up): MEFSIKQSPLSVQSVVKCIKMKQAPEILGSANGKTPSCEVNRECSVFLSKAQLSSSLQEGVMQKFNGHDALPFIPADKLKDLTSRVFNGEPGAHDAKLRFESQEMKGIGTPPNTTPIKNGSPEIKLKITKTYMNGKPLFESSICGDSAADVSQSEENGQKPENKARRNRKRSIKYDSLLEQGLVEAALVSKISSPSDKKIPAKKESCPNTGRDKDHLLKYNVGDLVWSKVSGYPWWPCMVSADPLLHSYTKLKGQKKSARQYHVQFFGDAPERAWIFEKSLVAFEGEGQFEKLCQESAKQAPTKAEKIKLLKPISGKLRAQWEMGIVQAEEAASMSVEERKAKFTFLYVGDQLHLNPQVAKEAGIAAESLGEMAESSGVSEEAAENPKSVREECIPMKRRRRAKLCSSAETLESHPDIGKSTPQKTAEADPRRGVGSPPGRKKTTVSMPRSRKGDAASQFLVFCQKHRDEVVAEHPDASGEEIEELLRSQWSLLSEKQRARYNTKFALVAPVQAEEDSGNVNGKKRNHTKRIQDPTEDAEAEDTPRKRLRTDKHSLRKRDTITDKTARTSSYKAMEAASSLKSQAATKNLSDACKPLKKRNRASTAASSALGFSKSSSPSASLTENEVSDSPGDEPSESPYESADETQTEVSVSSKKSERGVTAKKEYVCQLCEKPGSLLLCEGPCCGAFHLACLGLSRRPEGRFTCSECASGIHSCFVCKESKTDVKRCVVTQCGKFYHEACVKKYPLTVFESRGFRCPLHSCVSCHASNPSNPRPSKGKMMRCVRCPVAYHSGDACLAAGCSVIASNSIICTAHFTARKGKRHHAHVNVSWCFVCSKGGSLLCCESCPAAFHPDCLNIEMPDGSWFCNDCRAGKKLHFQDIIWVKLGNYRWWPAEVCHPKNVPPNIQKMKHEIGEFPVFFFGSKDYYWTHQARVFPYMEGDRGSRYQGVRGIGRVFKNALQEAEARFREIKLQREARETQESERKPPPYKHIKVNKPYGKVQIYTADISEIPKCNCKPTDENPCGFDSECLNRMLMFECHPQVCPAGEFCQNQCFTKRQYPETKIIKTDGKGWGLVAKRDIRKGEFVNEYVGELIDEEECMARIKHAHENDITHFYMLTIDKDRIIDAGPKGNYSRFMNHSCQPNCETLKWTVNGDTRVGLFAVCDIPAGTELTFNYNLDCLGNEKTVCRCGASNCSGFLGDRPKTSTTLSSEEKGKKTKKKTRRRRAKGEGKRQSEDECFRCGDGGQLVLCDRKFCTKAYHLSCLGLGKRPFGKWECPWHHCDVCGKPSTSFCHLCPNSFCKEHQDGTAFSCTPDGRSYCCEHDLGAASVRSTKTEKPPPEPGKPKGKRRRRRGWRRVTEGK
Chain of UniProt P06536 (whole entry, looked up): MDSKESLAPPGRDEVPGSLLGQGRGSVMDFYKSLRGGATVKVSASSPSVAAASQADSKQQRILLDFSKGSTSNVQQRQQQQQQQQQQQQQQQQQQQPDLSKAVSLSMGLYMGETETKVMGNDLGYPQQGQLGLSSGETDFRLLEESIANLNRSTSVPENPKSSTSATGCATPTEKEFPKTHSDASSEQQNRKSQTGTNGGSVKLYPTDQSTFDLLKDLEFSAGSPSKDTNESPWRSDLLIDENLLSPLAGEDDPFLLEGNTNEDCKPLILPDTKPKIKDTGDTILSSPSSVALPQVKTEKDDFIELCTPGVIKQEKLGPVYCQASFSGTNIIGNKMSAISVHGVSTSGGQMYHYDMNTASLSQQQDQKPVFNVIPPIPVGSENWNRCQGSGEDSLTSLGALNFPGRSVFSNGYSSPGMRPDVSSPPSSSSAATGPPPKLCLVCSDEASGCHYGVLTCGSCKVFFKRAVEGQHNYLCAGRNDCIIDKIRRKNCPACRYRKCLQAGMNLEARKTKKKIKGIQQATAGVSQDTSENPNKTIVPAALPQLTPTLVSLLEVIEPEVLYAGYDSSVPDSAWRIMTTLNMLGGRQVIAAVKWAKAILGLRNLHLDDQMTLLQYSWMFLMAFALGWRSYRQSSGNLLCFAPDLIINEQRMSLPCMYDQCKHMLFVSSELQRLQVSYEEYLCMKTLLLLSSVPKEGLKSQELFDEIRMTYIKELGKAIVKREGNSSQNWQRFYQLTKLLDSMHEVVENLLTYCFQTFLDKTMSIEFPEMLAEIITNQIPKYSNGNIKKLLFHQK
Chain of UniProt P08172 (whole entry, looked up): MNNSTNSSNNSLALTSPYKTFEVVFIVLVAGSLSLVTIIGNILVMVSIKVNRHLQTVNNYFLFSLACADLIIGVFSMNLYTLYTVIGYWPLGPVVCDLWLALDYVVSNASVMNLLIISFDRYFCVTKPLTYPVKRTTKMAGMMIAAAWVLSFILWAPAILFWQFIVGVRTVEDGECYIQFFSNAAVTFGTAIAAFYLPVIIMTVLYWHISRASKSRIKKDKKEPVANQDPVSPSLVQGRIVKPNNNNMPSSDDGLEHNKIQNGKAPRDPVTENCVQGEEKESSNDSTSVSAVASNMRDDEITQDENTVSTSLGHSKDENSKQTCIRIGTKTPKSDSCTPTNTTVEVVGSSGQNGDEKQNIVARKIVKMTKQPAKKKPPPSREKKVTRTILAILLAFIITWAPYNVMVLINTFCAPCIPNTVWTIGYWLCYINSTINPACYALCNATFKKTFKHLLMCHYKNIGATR
Chain of UniProt Q00535 (whole entry, looked up): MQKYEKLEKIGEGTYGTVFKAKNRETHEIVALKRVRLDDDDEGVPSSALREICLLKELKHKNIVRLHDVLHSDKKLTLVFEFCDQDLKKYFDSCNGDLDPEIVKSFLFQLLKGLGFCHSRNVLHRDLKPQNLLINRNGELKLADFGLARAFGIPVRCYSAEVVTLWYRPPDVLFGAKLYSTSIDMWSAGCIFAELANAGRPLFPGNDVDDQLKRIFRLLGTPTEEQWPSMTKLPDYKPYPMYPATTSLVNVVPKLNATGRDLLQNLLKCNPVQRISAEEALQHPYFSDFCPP

Compound	target or system	assay	test system	conditions	how to read	endpoint	value
CCC(=O)O[C@]1(C(=O)SCF)[C@H](C)C[C@H]2[C@@H]3C[C@H](F)C4=CC(=O)C=C[C@]4(C)[C@@]3(F)[C@@H](O)C[C@@]21C	Glucocorticoid receptor (Nr3c1, Rattus norvegicus, UniProt P06536)		rat, spleen	intravenous, 90 nmol/kg, 1.133 (unit not given)		receptor occupancy	53.5%
CC(C)(O/N=C(\C(=O)N[C@@H]1C(=O)N2C(C(=O)[O-])=C(C[N+]3(CCNC(=O)c4ccc(O)c(O)c4Cl)CCCC3)CS[C@H]12)c1csc(N)n1)C(=O)O	KPC-31	hydrolysis by enzyme, substrate				Km	12 µM
CC1(C)S[C@@H]2[C@H](NC(=O)[C@H](N)c3ccccc3)C(=O)N2[C@H]1C(=O)O	Escherichia coli		clinical isolate RKI 6 A-6			MIC	> 16 µg/mL
Nc1cc(C(F)(F)F)c(-c2nc(N3CCOCC3)nc(N3CCOCC3)n2)cn1	Cyclin-dependent kinase 5 (CDK5, Homo sapiens, UniProt Q00535)	enzyme activity		10 µM	baseline: untreated	remaining activity	85%
CCN(c1cc(-c2ccc(CN3CCOCC3)cc2)cc(C(=O)NCc2c(C)cc(C)[nH]c2=O)c1C)C1CCOCC1	Histone-lysine N-methyltransferase NSD2 (NSD2, Homo sapiens, UniProt O96028)	enzyme activity, inhibitor		1 µM		inhibition	8 ± 3%
C[N+]1(C)CCC(OC(=O)C(c2ccccc2)c2ccccc2)CC1.[I-]	Muscarinic acetylcholine receptor M2 (CHRM2, Homo sapiens, UniProt P08172)			historical reference value		Hill coefficient	1
O=C(Nc1nc2ccccc2[nH]1)c1ccccc1	RAR-related orphan receptor gamma			PubChem AID 2546		activity	7.9 µM
O=C(O)/C(=C/c1c(C(=O)O)[nH]c2cc(Cl)cc(Cl)c12)c1ccccc1	Glutamate receptor ionotropic, NMDA 1 (Grin1, Rattus norvegicus, UniProt P35439)	binding				Hill coefficient	0.6
CC1=CC(=O)N(c2ccccc2)C1=O	12-oxophytodienoate reductase OPR3 (isoform 3)	ene-reductase biotransformation, substrate				conversion	99%
Cc1cc(NC(=O)c2cccc(NC(=O)/C=C/CN(C)C)c2)ccc1Nc1nccc(-c2cccnc2)n1	Interleukin-1 receptor-associated kinase 1 (IRAK1, Homo sapiens, UniProt P51617)	enzyme activity, inhibitor		1 µM	baseline: vehicle	remaining activity	13%
Nc1ncn([C@@H]2O[C@H](CO)[C@@H](O)[C@H]2O)c(=O)n1	cytidine deaminase (human)	substrate		concentration not given		Km	28 µM
C=CC(=O)N1CCC(C(=O)NCC(=O)N2CCN(c3nc(-c4cnc(N)nc4C(F)F)nc(N4CCOCC4)n3)CC2)CC1	Phosphatidylinositol 3-kinase catalytic subunit type 3 (PIK3C3, Homo sapiens, UniProt Q8NEB9)	kinase activity		1 µM		remaining activity	4.5%
O=C(c1cc(-c2cc3c(cc2C(=O)N2Cc4ccccc4C[C@H]2CN2CCOCC2)OCO3)n2c1CCCC2)N(c1ccccc1)c1ccc(O)cc1	BCL-2 G101V	competitive binding		concentration not given	baseline: G101V over wild type	Ki fold change	100
CNC(C)C1CCC(N)C(OC2C(N)CC(N)C(OC3OCC(C)(O)C(NC)C3O)C2O)O1 (centres unmarked)	Escherichia coli		clinical isolate RKI-No_521/16			MIC	> 8 µg/mL

Repeated from above:
Compound	target or system	assay	test system	conditions	how to read	endpoint	value
CCC(=O)O[C@]1(C(=O)SCF)[C@H](C)C[C@H]2[C@@H]3C[C@H](F)C4=CC(=O)C=C[C@]4(C)[C@@]3(F)[C@@H](O)C[C@@]21C	Glucocorticoid receptor (Nr3c1, Rattus norvegicus, UniProt P06536)		rat, spleen	intravenous, 90 nmol/kg, 1.133 (unit not given)		receptor occupancy	53.5%
CC(C)(O/N=C(\C(=O)N[C@@H]1C(=O)N2C(C(=O)[O-])=C(C[N+]3(CCNC(=O)c4ccc(O)c(O)c4Cl)CCCC3)CS[C@H]12)c1csc(N)n1)C(=O)O	KPC-31	hydrolysis by enzyme, substrate				Km	12 µM
